Measurements from different studies.
Parts stem from different laboratories: compare values within a part only. Substitutions count along the parent as printed.
UniProt P29376, sequence (whole entry, looked up): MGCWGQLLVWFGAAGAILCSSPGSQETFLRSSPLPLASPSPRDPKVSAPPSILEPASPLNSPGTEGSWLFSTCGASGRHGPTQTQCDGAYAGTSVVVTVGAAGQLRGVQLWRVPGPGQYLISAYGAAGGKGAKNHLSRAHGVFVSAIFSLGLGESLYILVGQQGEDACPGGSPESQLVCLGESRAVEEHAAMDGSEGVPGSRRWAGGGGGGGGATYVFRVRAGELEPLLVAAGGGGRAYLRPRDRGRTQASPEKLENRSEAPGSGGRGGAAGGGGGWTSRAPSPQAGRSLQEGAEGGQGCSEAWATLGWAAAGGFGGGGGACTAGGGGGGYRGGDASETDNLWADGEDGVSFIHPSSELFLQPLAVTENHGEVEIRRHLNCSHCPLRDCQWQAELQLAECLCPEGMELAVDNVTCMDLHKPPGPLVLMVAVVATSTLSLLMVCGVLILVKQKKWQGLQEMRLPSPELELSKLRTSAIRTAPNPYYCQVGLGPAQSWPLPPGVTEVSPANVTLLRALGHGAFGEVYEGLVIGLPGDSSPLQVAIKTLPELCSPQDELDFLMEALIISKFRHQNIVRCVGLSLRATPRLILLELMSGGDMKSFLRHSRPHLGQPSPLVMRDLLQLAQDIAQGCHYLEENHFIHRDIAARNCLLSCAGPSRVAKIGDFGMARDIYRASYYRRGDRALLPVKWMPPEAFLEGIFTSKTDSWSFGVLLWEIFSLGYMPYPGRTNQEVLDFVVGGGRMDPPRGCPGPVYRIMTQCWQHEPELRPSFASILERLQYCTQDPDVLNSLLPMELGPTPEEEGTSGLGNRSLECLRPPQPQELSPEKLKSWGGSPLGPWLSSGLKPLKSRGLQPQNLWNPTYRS
UniProt P41145, sequence (whole entry, looked up): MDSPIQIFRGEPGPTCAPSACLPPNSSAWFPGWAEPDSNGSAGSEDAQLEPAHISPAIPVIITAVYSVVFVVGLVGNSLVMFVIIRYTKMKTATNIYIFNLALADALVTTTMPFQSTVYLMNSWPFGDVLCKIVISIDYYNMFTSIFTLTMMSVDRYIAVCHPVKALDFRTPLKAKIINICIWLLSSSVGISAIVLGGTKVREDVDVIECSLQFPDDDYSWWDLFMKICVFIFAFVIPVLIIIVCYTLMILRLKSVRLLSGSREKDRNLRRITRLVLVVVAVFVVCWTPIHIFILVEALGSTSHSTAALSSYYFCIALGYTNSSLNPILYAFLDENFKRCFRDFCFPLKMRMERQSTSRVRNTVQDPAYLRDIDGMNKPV

Series 1
Target: CCNA2, cyclin fold, Cln2 fusion (human)
Technique: yeast growth competition, sequencing
Matrix: yeast
Setting: strong parent motif
Baseline: not given
Direction: higher = stronger binding
Measurement: normalised enrichment score
Starting sequence: viral docking peptide; TSVRRALFTGGSD; partner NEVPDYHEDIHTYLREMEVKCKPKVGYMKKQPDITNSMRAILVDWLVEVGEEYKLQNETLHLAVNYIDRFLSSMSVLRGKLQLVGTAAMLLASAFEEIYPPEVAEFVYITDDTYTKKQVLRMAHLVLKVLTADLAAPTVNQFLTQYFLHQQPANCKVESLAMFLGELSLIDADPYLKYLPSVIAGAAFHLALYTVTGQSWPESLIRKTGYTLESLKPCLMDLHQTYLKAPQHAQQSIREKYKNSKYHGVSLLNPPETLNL
TSVRRALFTGGYD [S12Y]: 6.24
TSVRRALFTGGQD [S12Q]: 6.48
TEVRRALFTGGSD [S2E]: 5.31
TSVRRALFTGGCD [S12C]: 6.05

Other studies, line by line
HLA class I histocompatibility antigen, A alpha chain allele A*26:01: HLA class I histocompatibility antigen, A alpha chain, allele A*26:01 (Homo sapiens, UniProt P04439)
LYLQMNSL  binding (HLA class I histocompatibility antigen, A alpha chain allele A*26:01; peptide-MHC binding; peptide; concentration not given): inactive
Nc1ccc2ncnc(NCCc3ccc(Oc4ccccc4)cc3)c2c1  remaining activity (LTK (Homo sapiens, UniProt P29376); enzyme activity, inhibitor, radiometric; 0.5 µM): 106%
N#CN1CC[C@H](C(=O)Nc2nc3c(s2)CN(C(=O)CN=[N+]=[N-])CC3)C1  inhibition (OPRK1 (Homo sapiens, UniProt P41145); ligand displacement; 10 µM): 0.19%
MTYKAAVL  binding (HLA class I histocompatibility antigen, A alpha chain allele A*26:01; peptide-MHC binding; peptide; concentration not given): inactive

Excerpt of the above (series 1):
TSVRRALFTGGQD [S12Q]: 6.48
